# Measured values gathered from unrelated publications.
# Protocols differ between the studies behind these lines.
# PIK3CA I800L: Phosphatidylinositol 4,5-bisphosphate 3-kinase catalytic subunit alpha isoform (PIK3CA, Homo sapiens, UniProt P42336, I800L)
# PIK3CA M1043I: Phosphatidylinositol 4,5-bisphosphate 3-kinase catalytic subunit alpha isoform (PIK3CA, Homo sapiens, UniProt P42336, M1043I)
# PIK3CA: Phosphatidylinositol 4,5-bisphosphate 3-kinase catalytic subunit alpha isoform (PIK3CA, Homo sapiens, UniProt P42336)
# PIK3CA H1047Y: Phosphatidylinositol 4,5-bisphosphate 3-kinase catalytic subunit alpha isoform (PIK3CA, Homo sapiens, UniProt P42336, H1047Y)
Structure (SMILES),target,test,setting,scale,remaining binding [%]
CNC(=O)C1CCN(c2cc(C)c(F)cc2NC(=O)c2ccc(-c3cc(O)ccc3C)c(C)c2)CC1,PIK3CA I800L,"binding, competition with immobilised ligand",1 µM,,92
Nc1ncc2c(n1)-c1c([nH]c3ccc(C4=CCOCC4)cc13)CCC2,PIK3CA M1043I,"binding, competition with immobilised ligand",1 µM,,100
CC(=O)N1c2ccc(-c3ccc(CNC(=O)c4cn5cc(-c6cnc(N)nc6)nc(N6CCOCC6)c5n4)cc3)cc2CC[C@@H]1C,PIK3CA,KINOMEscan,10 µM,,0.75
C=CC(=O)N1CCc2ccc(-n3c(=O)ccc4cnc5ccc(-c6cnn(C)c6)cc5c43)cc21,PIK3CA M1043I,KINOMEscan,1 µM,relative to: DMSO control,100
CNC1C[S+]2CC[S+]3CC[S+](C1)[Ru-4]321([N]=C=S)[n]2c3ccc(OC)cc3c3c4c(c5cc(F)c[n+]1c5c32)C(=O)NC4=O (stereo not shown),PIK3CA I800L,KinomeScan,0.1 µM,relative to: untreated,100
CCN1CCN(Cc2ccc(C(=O)Nc3ccc(C)c(NCc4cnc5[nH]ccc5c4OC)c3)cc2C(F)(F)F)CC1,"PIK3CA (Homo sapiens, UniProt P42336, E545K)","binding, competition with immobilised ligand",1 µM,,62
CC(C)=CC1OC(C)(C)C2C=C3C(=O)C(Cl)=CC(O)C3C3C(O)C4OC4C(=O)C132 (stereo not shown),PIK3CA I800L,"cell-free assay, competition with immobilised ligand",10 µM,,55
CCN1CCN(Cc2ccc(NC(=O)c3ccc(C)c(NC(=O)c4cncc(-c5cccs5)c4)c3)cc2C(F)(F)F)CC1,PIK3CA,"binding, competition with immobilised ligand",1 µM,,21
COc1c(Cl)cccc1Nc1c(-c2ccncc2C#C[C@@]2(C)CCCN2C(=O)/C=C/CN(C)C)[nH]c2c1C(=O)NCC2,PIK3CA H1047Y,"binding, competition with immobilised ligand",3 µM,,73
CNS(=O)(=O)Nc1nccc(Cc2c(C)c3ccc(Oc4ncccc4F)cc3oc2=O)c1F,PIK3CA,"binding, competition with immobilised ligand",10 µM,,100
COc1cc(Nc2nccc(-c3cnn4nc(OC)ccc34)n2)cc(C(F)(F)F)c1,PIK3CA H1047Y,binding,1 µM,,81
COc1ccc(NC(=O)Nc2ccc3c(c2)C(=O)N(C(C)CO)CC(C)C(CN(C)Cc2ccc4c(c2)OCO4)O3)cc1 (stereo not shown),PIK3CA,"binding, competition with immobilised ligand",10 µM,,74
Cc1ccc(-c2c(/C=C(\C#N)C(=O)NC(C)C)n(CCCO)c3ncnc(N)c23)cc1,PIK3CA,"cell-free assay, competition with immobilised ligand",1 µM,,94
CC(=O)c1cnc(N)nc1N1CC[C@H]1c1nn2ccc(Cl)c2c(=O)n1-c1ccccc1,PIK3CA M1043I,"binding, competition with immobilised ligand",10 µM,,71
C=CC(=O)N1CCCC(n2c(=O)c3ncccc3n(Cc3ccc(Oc4ccccc4)cc3)c2=O)C1 (stereo not shown),PIK3CA H1047Y,"cell-free assay, competition with immobilised ligand",1 µM,,96
Cc1cnc2nc1Nc1cccc(c1)COC/C=C/COCc1cc(ccc1OCCN1CCOCC1)N2,"PIK3CA (Homo sapiens, UniProt P42336, Q546K)",binding,0.1 µM,,79

# For quick reference, copied from above:
Structure (SMILES),target,test,setting,scale,remaining binding [%]
CC(C)=CC1OC(C)(C)C2C=C3C(=O)C(Cl)=CC(O)C3C3C(O)C4OC4C(=O)C132 (stereo not shown),PIK3CA I800L,"cell-free assay, competition with immobilised ligand",10 µM,,55
CCN1CCN(Cc2ccc(NC(=O)c3ccc(C)c(NC(=O)c4cncc(-c5cccs5)c4)c3)cc2C(F)(F)F)CC1,PIK3CA,"binding, competition with immobilised ligand",1 µM,,21
